# Published values collected from several papers.
# Each numbered part is a random draw from the data of one study; scales do not carry over between parts.
# UniProt P00519, sequence (whole entry, unmodified, looked up): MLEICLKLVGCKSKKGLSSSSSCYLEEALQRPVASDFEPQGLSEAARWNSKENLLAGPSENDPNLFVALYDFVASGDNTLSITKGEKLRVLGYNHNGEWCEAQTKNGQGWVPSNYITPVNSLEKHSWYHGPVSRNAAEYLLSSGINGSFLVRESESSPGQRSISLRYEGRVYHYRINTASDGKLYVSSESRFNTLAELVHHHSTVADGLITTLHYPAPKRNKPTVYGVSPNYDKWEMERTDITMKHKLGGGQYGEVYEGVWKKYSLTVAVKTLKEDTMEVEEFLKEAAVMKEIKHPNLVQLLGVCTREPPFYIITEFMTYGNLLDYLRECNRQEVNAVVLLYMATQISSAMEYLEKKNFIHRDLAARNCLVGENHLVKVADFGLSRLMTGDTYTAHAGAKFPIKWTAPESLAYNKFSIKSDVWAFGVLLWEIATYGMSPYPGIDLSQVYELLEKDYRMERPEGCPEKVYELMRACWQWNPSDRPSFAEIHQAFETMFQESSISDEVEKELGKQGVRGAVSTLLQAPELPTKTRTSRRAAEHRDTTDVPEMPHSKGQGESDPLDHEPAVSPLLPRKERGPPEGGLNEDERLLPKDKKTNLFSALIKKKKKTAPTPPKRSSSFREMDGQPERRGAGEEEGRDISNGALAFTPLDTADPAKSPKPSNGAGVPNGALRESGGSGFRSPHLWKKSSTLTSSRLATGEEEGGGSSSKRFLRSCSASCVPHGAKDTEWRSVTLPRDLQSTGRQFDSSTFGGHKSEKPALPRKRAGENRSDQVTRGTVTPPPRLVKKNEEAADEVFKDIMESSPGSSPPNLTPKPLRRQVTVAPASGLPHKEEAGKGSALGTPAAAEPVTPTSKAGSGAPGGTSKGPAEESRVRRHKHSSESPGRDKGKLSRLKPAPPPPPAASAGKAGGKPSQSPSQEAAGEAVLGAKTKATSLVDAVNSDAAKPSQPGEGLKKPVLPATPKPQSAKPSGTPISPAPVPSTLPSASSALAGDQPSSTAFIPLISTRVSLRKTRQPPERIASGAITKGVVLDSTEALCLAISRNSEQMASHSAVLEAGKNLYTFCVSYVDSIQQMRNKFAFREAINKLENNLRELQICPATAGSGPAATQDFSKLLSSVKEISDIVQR

# Study 1 — technique: protein-binding microarray; molecule type: hairpin DNA; matrix: in vitro; concentration: not given; relative to: not given; reading: higher = stronger binding
# Target: Homeobox protein Hox-C11, full length (HOXC11, Homo sapiens, UniProt O43248, residues 1-304)
# UniProt O43248, sequence (whole entry, looked up): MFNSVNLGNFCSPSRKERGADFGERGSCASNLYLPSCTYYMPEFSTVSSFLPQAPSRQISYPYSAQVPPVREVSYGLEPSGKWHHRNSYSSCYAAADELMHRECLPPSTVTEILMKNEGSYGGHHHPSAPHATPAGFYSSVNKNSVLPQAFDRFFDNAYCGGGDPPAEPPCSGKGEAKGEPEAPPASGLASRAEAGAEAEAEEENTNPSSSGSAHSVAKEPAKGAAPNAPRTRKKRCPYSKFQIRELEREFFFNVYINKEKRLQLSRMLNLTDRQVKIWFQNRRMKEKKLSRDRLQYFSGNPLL
# Setting: whole hairpin DNA, median over replicate spots
Sequence,median fluorescence [a.u.]
GAGGCCAGGTCGTAATAGCCTCCTGGCTATTACGACCTGGCCTCACACTC,10200
GAGGCCAGCGCGTTAAAGCCTCCTGGCTTTAACGCGCTGGCCTCACACTC,10400
GAGGCCAGGTCGTTCGAGCCTCCTGGCTCGAACGACCTGGCCTCACACTC (5mC at 29),11300
GAGGCCTGGTCGTAAAAGCCTCCTGGCTTTTACGACCAGGCCTCACACTC,9070
GAGGCCAGGCGGTTAAAGCCTCCTGGCTTTAACCGCCTGGCCTCACACTC (5mC at 10),9800
GAGGCCCGGTCGTTAAAGCCTCCTGGCTTTAACGACCGGGCCTCACACTC,10200
GAGGCCAGGTCCGAAAAGCCTCCTGGCTTTTCGGACCTGGCCTCACACTC,9140
GAGGCCAGGTCGTAACGGCCTCCTGGCCGTTACGACCTGGCCTCACACTC,10400

# Study 2 — technique: aptamer microarray, sandwich; molecule type: DNA with 2'F-ANA; matrix: in vitro; concentration: 200 nM; together with: Cy3 exosite-II aptamer, 400 nM; reading: higher = stronger binding; sequence: GGTTGGTGTGGTTGG
# Target: Prothrombin, mature alpha-thrombin (F2, Homo sapiens, UniProt P00734)
# Setting: whole 15-mer aptamer, many near background
Modification,mean fluorescence intensity [a.u.]
2'F-ANA at 1 2 5 6 7 8 9 11 12 13 14 15,49.6
2'F-ANA at 1 7 8 9 10 14 15,70.7
2'F-ANA at 2 3 5 6 8 14,50.5
2'F-ANA at 1 2 4 5 9 10 12 14,45.6
2'F-ANA at 1 3 6 7 8 10 11 12 15,114
2'F-ANA at 2 6 11 12 14 15,151
2'F-ANA at 1 2 4 5 10 11 13,47.3
2'F-ANA at 1 3 4 5 6 9 10 12,49.7

# Further values, each from its own experiment
Substance,tested on,technique,concentration,setting,relative to,quantity,result
"MBD3 (Homo sapiens, UniProt O95983)","GATAD2B (Homo sapiens, UniProt Q8WXI9)",cross-linking MS,,hits only,,interaction screen,cross-linked
O=C(Nc1cccnn1)N1CC(CC=Cc2cncc(Oc3ccc(C(F)(F)F)cn3)n2)C1,"Tyrosine-protein kinase ABL1 (ABL1, Homo sapiens, UniProt P00519, E255K)",KINOMEscan,1 µM,"E255K mutant, phosphorylated",control,remaining binding,81%
"SF3B1 (Homo sapiens, UniProt O75533)","SF3B2 (Homo sapiens, UniProt Q13435)",cross-linking MS,,hits only,,interaction screen,cross-linked
